Published values gathered from unrelated publications.
A part holds a random share of what one study measured. Values joined by “and” are separate records of one study, mostly repeats; a detail may differ.
Sequence of UniProt Q5XXA6 (whole entry, unmodified, looked up): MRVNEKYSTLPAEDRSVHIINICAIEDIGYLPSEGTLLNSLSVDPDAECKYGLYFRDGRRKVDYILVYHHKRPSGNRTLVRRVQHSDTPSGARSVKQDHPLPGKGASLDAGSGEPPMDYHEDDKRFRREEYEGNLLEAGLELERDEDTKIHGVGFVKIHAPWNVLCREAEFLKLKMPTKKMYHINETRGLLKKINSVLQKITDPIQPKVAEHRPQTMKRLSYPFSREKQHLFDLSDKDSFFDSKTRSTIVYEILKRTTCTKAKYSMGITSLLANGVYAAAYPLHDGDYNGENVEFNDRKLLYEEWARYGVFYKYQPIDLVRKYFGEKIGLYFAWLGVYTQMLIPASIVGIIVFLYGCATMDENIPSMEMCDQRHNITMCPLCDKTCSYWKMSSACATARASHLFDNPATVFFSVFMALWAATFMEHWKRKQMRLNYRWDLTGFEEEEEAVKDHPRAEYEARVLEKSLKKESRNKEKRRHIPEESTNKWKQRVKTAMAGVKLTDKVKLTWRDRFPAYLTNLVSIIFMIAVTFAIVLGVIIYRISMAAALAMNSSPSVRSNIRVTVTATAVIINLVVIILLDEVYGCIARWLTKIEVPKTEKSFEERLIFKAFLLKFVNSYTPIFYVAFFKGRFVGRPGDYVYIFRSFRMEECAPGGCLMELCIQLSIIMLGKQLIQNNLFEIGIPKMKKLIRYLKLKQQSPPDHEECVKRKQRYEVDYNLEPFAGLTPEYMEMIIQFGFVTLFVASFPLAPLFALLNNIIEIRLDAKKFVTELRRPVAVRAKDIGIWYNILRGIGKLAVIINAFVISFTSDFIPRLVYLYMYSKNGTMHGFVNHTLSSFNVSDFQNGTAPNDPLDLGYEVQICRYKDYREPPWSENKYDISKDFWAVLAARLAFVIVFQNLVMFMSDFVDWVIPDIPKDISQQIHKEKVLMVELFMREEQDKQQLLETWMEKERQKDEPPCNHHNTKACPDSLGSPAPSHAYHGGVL
Sequence of UniProt P35626 (whole entry, looked up): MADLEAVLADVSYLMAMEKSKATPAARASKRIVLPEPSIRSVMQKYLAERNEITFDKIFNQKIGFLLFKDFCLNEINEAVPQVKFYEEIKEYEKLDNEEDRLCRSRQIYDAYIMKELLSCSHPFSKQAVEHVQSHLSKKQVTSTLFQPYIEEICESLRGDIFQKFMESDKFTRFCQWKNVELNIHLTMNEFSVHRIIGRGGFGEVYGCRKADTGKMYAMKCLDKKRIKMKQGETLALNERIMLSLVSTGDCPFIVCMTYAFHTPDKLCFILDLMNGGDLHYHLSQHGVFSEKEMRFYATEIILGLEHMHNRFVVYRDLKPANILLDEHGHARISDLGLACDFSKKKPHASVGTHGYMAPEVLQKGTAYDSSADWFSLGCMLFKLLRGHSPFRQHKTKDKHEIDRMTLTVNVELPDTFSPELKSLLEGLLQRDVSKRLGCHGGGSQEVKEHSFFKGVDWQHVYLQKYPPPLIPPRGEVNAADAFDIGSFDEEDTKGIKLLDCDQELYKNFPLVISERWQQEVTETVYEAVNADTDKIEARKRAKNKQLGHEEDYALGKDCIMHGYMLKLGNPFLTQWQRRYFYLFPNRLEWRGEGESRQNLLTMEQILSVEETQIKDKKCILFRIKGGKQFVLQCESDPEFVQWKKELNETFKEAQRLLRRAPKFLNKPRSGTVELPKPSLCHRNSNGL

Study 1 — species: mouse; medium: microsomes or S9; tested at: 2 µM; time: 0.5 h; quantity: remaining compound
N#Cc1cc(F)ccc1S(=O)(=O)N1CCCO1: 95.7%
COCCN1C(=O)C(CC(=O)O)=C2CCCCC21 (stereo not drawn): 83%
O=S1(=O)CCN(CC2CCCO2)c2c(Oc3ccc(F)cc3)nc(F)c(Cl)c21 (stereo not drawn): 5.87%
CC(C)C(=O)NC[C@@H]1C[C@H](F)CN1C(=O)CS(C)(=O)=O: 48.8%
COc1c(Cl)ccc(C2=NOC(c3cc(N)c(Cl)c(C(=O)O)n3)C2)c1F (stereo not drawn): 82.3%
Cc1cn(S(=O)(=O)c2ccccc2)cc1C(=O)CC(C)C[N+](=O)[O-] (stereo not drawn): 3.13%

Study 2 — cell line: mouse MPNST tumor cells; method: high-content immunofluorescence imaging; item: nuclear SOX9; tested at: 10 µM; time: 12 h; notes: mean of 2 replicates; reference: DMSO control; direction: higher = more nuclear SOX9; quantity: nuclear SOX9 intensity
NS(=O)(=O)c1cc2c(cc1Cl)N=CNS2(=O)=O: 107 % of DMSO
CCC(=O)NC1Cc2ccccc2C(c2ccccc2)C1 (stereo not drawn): 108 % of DMSO
Nc1nccc(-c2c(-c3ccc(F)cc3)ncn2C2CCCCC2)n1: 109 % of DMSO
CCCC1O[C@@H]2C[C@H]3[C@@H]4CCC5=CC(=O)C=C[C@]5(C)[C@H]4[C@@H](O)C[C@]3(C)[C@]2(C(=O)CO)O1 (stereo partly drawn): 102 % of DMSO and 67.6 % of DMSO
Cc1cc(C)c(-n2ccn3nc(-c4cccnc4)cc23)cc1NC(=O)c1cc(C#N)cc(S(F)(F)(F)(F)F)c1: 186 % of DMSO

Study 3 — SMILES: C=CCc1ccc(O)c(-c2ccc(O)c(CC=C)c2)c1; read-out: chloride current; method: whole-cell voltage clamp; quantity: IC50
Anoctamin-1 (ANO1, Homo sapiens, UniProt Q5XXA6, D383A/del476-501); membrane voltage -100 mV: 22 µM
Anoctamin-1 (ANO1, Homo sapiens, UniProt Q5XXA6, del476-501/F628Y); inhibitor; 100 mV holding voltage: 22.6 µM
Anoctamin-1 (ANO1, Homo sapiens, UniProt Q5XXA6, del476-501/F803Y); inhibitor; 100 mV holding voltage: 13.5 µM
Anoctamin-1 (ANO1, Homo sapiens, UniProt Q5XXA6, del476-501/F627A); membrane voltage 80 mV: 7.05 µM
Anoctamin-1 (ANO1, Homo sapiens, UniProt Q5XXA6, del476-501/F803W); inhibitor; 80 mV holding voltage: 6.37 µM
Anoctamin-1 (ANO1, Homo sapiens, UniProt Q5XXA6, del476-501/R561A); membrane voltage 60 mV: 6.47 µM

Other studies, line by line
O=C1NC(c2ccccn2)Sc2ccccc21 (stereo not drawn)
Kd (G protein-coupled receptor kinase 3 (GRK3, Homo sapiens, UniProt P35626); binding, competition with immobilised ligand): > 10 µM

For quick reference, copied from above (study 1):
COCCN1C(=O)C(CC(=O)O)=C2CCCCC21 (stereo not drawn): 83%
O=S1(=O)CCN(CC2CCCO2)c2c(Oc3ccc(F)cc3)nc(F)c(Cl)c21 (stereo not drawn): 5.87%
